# Assay results from different studies.
# Numbered parts are unrelated; each lists some results of a single study.

# Study 1 — method: RNA Bind-n-Seq; molecule type: RNA; medium: in vitro; tested at: 365 nM; reference: no-protein control; reading: higher = stronger binding
# Target: RNA binding protein fox-1 homolog 2, RRM domain, GST-SBP tag (RBFOX2, Homo sapiens, UniProt O43251-10, residues 100-194)
# Notes: natural RNA segment, single round, ends assumed
# All sequences stand within: GGGAGUUCUACAGUCCGACGAUC … UGGAAUUCUCGGGUGCCAA
# Residues (chain): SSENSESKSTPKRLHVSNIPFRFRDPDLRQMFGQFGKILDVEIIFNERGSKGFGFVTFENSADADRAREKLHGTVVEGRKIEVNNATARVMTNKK
Sequence,RBNS enrichment (R)
CUUCUCCCCUCUUGCAUUCAAGAUUAUGAAACUUUGCUAUGGGCCCUGCACUUCCUUUGCUUCCUCCUGUUCACCCUGGUGGUGUACGGAUGAGGCGGGGAGGUGGGACC,0.347
ACCCCACUAUGCCGCAGGCCGCCCUACCCACCUUCAGGCAGCCUAUGGGACGCAGGGCCCCAUCUGUCCCUCGGUCGCCGUGUGGCCAGAGUGGGUCCGUCGUCCCCAAC,0.298
UUAAGAUAUUUUGAUUUCAAUAACAAAAAUAAUACAAGAGUUUAAUCUGUGGAUUAUGUUCCUGAUCAUUUGCAGUUAAGGAAUUUAAAUAAAUCACAUGUUAACGACAA,0.286
UCAGCUAUGACAGCUGGUGUGGAGUAGAAGGGCAACUAGUUCUGUUAUUUAUUGAACAUUUGGGGUUUCAGUUGUAAAGCCACAACUACAGGUAGGACCUGAUAUUUCGG,0.403
UAUUUGGGGGGGAAUAAGAUUAUAUGGACUUUCUUGCAAGCAACAAGCUAUUUUUUAAAAAAAACUAUUUAACAUUCUUUUGUUUAUAUUGUUUUGUCUCCUAAAUUGUU,2.63
UUACUUUAUUAAGAUUUUACAGCGAAACCCUUACAUGAGUAAUUGAAAUGAAAUUAAAUGAGAUUACAGCAUAAUGAAGAAGAAAACUAGAAUCUAACAGGUAUGACACA,0.425
UAGUAAGUCUUUUAGGAUGAUUUUAAUUUAGUCGUGCGUCAUUUUCUGAUUCUCAUCAUUGGGAGAUCUUAAAUCUUAGCAAGCAUUAGCAAUAUUAAAUGCCAAAAUUC,0.506
CCCAGGCCCAAAGGAGACAACUAACUAAAGUAGUGAGAUAGAUUCUAAGGGCAAACAUUUUUCCAAGUCUUGCCAUAUUUCAAGCAAAGAGGUGCCCAGGCCUGAGGUAC,0.503

# Study 2 — method: RNA Bind-n-Seq; molecule type: RNA; medium: in vitro; tested at: 200 nM; notes: whole 134-nt RNA, ends assumed; together with: 150 mM KCl; reference: input library; reading: higher = stronger binding
# Target: Ras GTPase-activating protein-binding protein 1, full length (G3BP1, Homo sapiens, UniProt Q13283)
# Sequence of UniProt Q13283 (whole entry, looked up): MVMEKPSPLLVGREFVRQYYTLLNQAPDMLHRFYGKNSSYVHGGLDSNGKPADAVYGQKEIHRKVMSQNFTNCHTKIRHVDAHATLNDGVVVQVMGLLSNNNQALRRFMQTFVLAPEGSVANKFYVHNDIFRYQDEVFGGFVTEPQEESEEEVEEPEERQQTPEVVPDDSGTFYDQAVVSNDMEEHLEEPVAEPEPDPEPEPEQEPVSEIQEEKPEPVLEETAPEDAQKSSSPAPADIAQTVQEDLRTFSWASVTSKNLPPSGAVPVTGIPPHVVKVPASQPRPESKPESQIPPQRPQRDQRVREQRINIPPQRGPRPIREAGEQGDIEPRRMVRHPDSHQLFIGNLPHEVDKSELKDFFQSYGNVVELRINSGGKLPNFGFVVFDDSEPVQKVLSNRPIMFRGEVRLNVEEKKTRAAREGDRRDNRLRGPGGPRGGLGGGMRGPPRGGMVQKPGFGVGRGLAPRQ
# All sequences stand within: GGGAGUUCUACAGUCCGACGAUC … UGGAAUUCUCGGGUGUCAAGG
Sequence,log2 enrichment
GAUUCCCUCCACAUGCUGCACGCGCAUCUCGCCCCCAGGGGCACUGCCUGGAAGAUUCAGGAGCCUGGGCGGCCUUCGCUUACUCUCACC,1.01
CAAGUCCUGUGCUACACAUCGUAUGUACCGAAUCGGAAAGGGAAAGGGGAAAGGGAAAGUAUUAUGUUACGCCGUUCGGAUCUGCACUUC,-0.284
CACAGACAACACGCACCCACACAGACACAGAGGGAAGGGGUUGGGAUGGGGACAGGGUGUACAGCAGGGCGGGGUAGGACCCCAGCCCCU,1.79
GUCCUGUGCUACACAUCGUAUGUACCGAAUCGGGGCCCCGGGGCCCCGGGGCCCCGGGGAAAGUAUUAUGUUACGCCGUUCGGAUCUGCA,1.54
UAUGGACAAGCAUAAUGGAACAGACAGGUUUGUGAACCAGCAGUUUCAAGAGGAAAAGUUAAAUAAAUUGCAGAAGUUACUUAUUCUUUU,-1.97
GCAGGAAGUAAAAACAAAUGGAAAUUCUUCGGAUAGUGGCAGGGGUGGGGGUUGCUAAGGAAAGGGUGGGAUGGGAGUGGGUAAAGAGUU,0.735
AAGUCCUGUGCUACACAUCGUAUGUACCGAAUCGGAAAAAAAGGUUUUUGGAAAGGAAAGUAUUAUGUUACGCCGUUCGGAUCUGCACUU,-1.72
GUCCUGUGCUACACAUCGUAUGUACCGAAUCGGGUUUUUUGGUUUUUUGGGUUUUUUGGAAAGUAUUAUGUUACGCCGUUCGGAUCUGCA,-1.03
UAACUUUAGAGGAGGAUCUGAUGGAUAUGGCAGUGGACGUGGAUUUGGGGAUGGCUAUAAAGGGUAUGGAGGAGGACCUGGAGGUGGCAA,0.363

# Study 3 — method: protein-binding microarray; molecule type: double-stranded DNA, one strand shown; medium: in vitro; tested at: 2200 nM top; notes: 60-bp whole probe; together with: salmon DNA 0.4 mg/ml; reference: random background probes; reading: higher = stronger binding; all sequences stand within: GCCTAGCAC … GTCTTGATTCGCTTGACGCTGCTG
# Target: Interferon regulatory factor 7, full length, phosphomimetic (IRF7, Homo sapiens, UniProt Q92985, residues 1-503, S471D/S472D/S475D/S476D/S477D/S483D/S484D/S487D)
# Sequence of UniProt Q92985 (whole entry, unmodified, looked up): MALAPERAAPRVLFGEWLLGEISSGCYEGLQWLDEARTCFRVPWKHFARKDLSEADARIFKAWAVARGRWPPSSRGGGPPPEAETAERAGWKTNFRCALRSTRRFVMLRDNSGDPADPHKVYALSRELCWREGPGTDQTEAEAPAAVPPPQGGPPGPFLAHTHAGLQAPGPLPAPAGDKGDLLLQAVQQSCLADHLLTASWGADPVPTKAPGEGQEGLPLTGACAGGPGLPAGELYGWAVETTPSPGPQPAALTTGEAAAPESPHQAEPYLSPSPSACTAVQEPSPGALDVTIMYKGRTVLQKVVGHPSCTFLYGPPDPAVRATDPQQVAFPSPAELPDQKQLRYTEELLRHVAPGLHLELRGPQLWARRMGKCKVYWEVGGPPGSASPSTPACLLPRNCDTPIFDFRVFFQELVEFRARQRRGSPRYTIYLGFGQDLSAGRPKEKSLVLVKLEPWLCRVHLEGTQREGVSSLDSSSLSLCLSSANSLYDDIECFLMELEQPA
Sequence,fitted relative affinity
TGAGGACTGGGTATCGGTTAGTGCTAG,-0.406 z-score
GACGGTAACGGGTATCGGGACGTGCTA,-0.746 z-score
TTAGGACTGGGGTTTCGGTAAGTGCTA,0.557 z-score
TTAGATTACAGTTCCGATTAGTGCTAG,0.986 z-score
TTTGAACTGGGGACTGGATTAGTGCTA,-0.047 z-score
GACGATTTCGGGTATGGAGACGTGCTA,2.63 z-score
TTAGGACGGCTTCTCCTTTAGTGCTAG,0.178 z-score
GACGGACTGGGTCTCGGGATGTGCTAG,-0.773 z-score
GAATGAATGGACATTTCTTCGTGCTAG,0.682 z-score
GACGGTTTCCTTTCCCTGATGTGCTAG,4.4 z-score
TTAGGATTGGGTTTCGGTTAGTGCTAG,4.22 z-score
TTAGGACTGGACACTGGGATAGTGCTA,-0.691 z-score
TTAGGTATCCTTTTGCTTTAGTGCTAG,1.72 z-score
TTCGATTTCAGTCTCGATTAGTGCTAG,2.15 z-score
GACGATATCGGGACTGGAGAGGTGCTA,-0.48 z-score
TTAGAACTGAGTTCCGATTAGTGCTAG,0.00256 z-score
GACGGTATCGACACTGTGGACGTGCTA,0.0668 z-score
TCAATTTTCCCTCCCTAACTGTGCTAG,2.81 z-score
GTTAGAATGTCCTTTCTCCATGTGCTA,1.05 z-score

# Study 4 — method: protein binding microarray; molecule type: double-stranded DNA, one strand shown; medium: in vitro; tested at: not given; reference: not given; reading: higher = stronger binding
# Target: Histone acetyltransferase KAT6A, winged helix 2, GST fusion (KAT6A, Homo sapiens, UniProt Q92794, residues 85-181)
# Notes: 8-mer, flanks averaged, mean of 2 arrays, mostly near background
# Construct (chain): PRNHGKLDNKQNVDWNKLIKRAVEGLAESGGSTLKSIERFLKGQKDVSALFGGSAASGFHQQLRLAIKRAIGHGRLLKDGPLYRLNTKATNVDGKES
Sequence,E-score
ATGACAAC,-0.117
GGTATAAA,0.0846
GTGACTAA,0.0389
CGCCCCTA,0.0369
GAATCGTA,-0.169
ATAGTTAC,-0.0379
CTGACCAA,0.188
GGCCAGTA,0.0271
ACGCTTAC,-0.14
CCCAAACG,-0.0823
CTTTCAAC,-0.00658
TATATTGA,-0.0473
CGACACTA,-0.00472
GATTACCC,-0.0298
CTGGTTGA,-0.083
AACGGAAC,-0.0176
CATTCGCA,-0.00728

# Some of these lines once more (study 3):
Sequence,fitted relative affinity
GACGGTAACGGGTATCGGGACGTGCTA,-0.746 z-score
TCAATTTTCCCTCCCTAACTGTGCTAG,2.81 z-score
TTAGGTATCCTTTTGCTTTAGTGCTAG,1.72 z-score
GACGGACTGGGTCTCGGGATGTGCTAG,-0.773 z-score
TTTGAACTGGGGACTGGATTAGTGCTA,-0.047 z-score
GAATGAATGGACATTTCTTCGTGCTAG,0.682 z-score
TTAGGACTGGACACTGGGATAGTGCTA,-0.691 z-score
TTAGGACTGGGGTTTCGGTAAGTGCTA,0.557 z-score
